Assay results from different studies.
Parts stem from different laboratories: compare values within a part only. Substitutions count along the parent as printed.

Study 1 — method: competition protein-binding microarray; form: double-stranded DNA, one strand shown; sample: in vitro; tested at: 2 µM; together with: Cbf1 competitor, 0.05 µM; reading: higher = stronger binding
Target: Phosphate system positive regulatory protein PHO4, full length, GST-tagged (PHO4, Saccharomyces cerevisiae, UniProt P07270, residues 1-312)
Notes: whole 60-bp probe, lowest competitor level
Target sequence (chain): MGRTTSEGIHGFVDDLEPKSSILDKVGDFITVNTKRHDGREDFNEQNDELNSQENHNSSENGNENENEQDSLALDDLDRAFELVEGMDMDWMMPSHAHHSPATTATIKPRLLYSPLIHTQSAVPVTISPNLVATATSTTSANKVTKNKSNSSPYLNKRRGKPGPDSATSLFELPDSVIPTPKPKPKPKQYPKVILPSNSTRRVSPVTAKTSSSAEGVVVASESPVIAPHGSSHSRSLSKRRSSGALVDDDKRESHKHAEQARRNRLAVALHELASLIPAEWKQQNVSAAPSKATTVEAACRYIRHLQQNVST
For `TGCGCAACAACTTGGGTTGTGGGTGTATGTCTAGAAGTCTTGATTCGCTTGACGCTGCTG`, the fluorescence intensity was 5180 a.u.
`TGCGCAACAACTTGTGGAGTGGGTGTATGTCTAGAAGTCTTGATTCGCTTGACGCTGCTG` gave a fluorescence intensity of 5060 a.u.
The fluorescence intensity of `CATACCCAACCTTGTAAGGTGGGTGAAGATATTTGTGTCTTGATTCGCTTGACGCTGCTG` is reported as 3410 a.u.
`AGTTCATCGATGTAGCATGTGTACGCATTTCTAGATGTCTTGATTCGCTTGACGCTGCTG` has a fluorescence intensity of 10800 a.u.
With `AAATTACTAAGTTGCCGAGTGGGTGACGCCGTATGAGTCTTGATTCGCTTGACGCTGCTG` the fluorescence intensity was 4570 a.u.
`CTAACGAAGGTTTGGGTAGTGGGTGACAAGCCAAGTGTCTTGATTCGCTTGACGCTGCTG` has a fluorescence intensity of 4060 a.u.
For `TTGCGCTTGCCGTAGCACATGACAAACGGACTATTGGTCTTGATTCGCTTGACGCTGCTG`, the fluorescence intensity was 8330 a.u.
With `GCAAGTCAAGAGGTCTCCGTGATGGCTAGCCACCTCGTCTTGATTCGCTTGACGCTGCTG` the fluorescence intensity was 2840 a.u.
For `AAATTACTAAGTTGGCATGTGGGTGACGCCGTATGAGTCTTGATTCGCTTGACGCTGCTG`, the fluorescence intensity was 11100 a.u.
With `TGAAATAGATATTAGCACGTGTCGGGGAGAGAAGAAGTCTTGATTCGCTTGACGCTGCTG` the fluorescence intensity was 17400 a.u.
For `CTAACGAAGGTTTGTGTAGTGGGTGACAAGCCAAGTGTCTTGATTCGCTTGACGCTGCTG`, the fluorescence intensity was 3980 a.u.
For `AAATTAGTAACGCATAACGTGTTTTCTGCGACAAGCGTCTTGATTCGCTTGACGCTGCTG`, the fluorescence intensity was 7540 a.u.
The fluorescence intensity of `GTCAATGCCCTAGCAGACGTGCTTTACAAGACTGCCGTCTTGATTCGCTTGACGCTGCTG` is reported as 7100 a.u.
The fluorescence intensity of `ATCCAATAAGAGGGGCGCGTGTCGGCAGAGATAAGCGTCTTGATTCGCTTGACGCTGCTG` is reported as 10900 a.u.
For `ACATCAAGACAGCGTCACAGTCAGCTAAACAGAAAAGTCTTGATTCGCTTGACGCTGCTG`, the fluorescence intensity was 3390 a.u.
`CTAACGAAGGTTTGCCTTGTGGGTGACAAGCCAAGTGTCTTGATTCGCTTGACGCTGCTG` has a fluorescence intensity of 5030 a.u.
With `CTAACGAAGGTTTGTAGGGTGGGTGACAAGCCAAGTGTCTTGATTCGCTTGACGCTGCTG` the fluorescence intensity was 3770 a.u.
`ATTTGGTTATGCTTGTATGCCTCTATTATTTACTTGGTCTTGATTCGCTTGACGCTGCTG` has a fluorescence intensity of 4550 a.u.
`TTCACCAGCGTTCCACACGTGTCGGCCATATCGTCAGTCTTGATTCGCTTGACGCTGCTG` has a fluorescence intensity of 17200 a.u.

Study 2 — method: universal PBM; form: double-stranded DNA, one strand shown; sample: in vitro; tested at: not given; reading: higher = stronger binding
Target: Sal-like protein 4, full length isoform B (SALL4, Homo sapiens, UniProt Q9UJQ4-2, residues 1-616)
Notes: 8-mer, flanks averaged, mean of replicates
The E-score of `CGTAATAC` is reported as 0.179.
With `CAATTAAG` the E-score was 0.177.
For `CTGGACGC`, the E-score was -0.226.
For `CCCACCCC`, the E-score was -0.113.
The E-score of `ACAGGAAT` is reported as 0.206.
For `CTTCTCAA`, the E-score was 0.0325.
With `AGGAAGTA` the E-score was 0.0192.
`AGGGCGGC` has an E-score of -0.333.
`CCAAAGTC` has an E-score of -0.0546.
The E-score of `GGTTAGCA` is reported as -0.0838.
For `ATCATCGA`, the E-score was 0.0868.
`ACTCCCAC` has an E-score of -0.152.
With `AGACGGAG` the E-score was -0.173.
With `TGCGACCA` the E-score was -0.104.
The E-score of `ATGCGACG` is reported as -0.0648.
For `CGGAGAAG`, the E-score was -0.221.
`TTCTAAAA` has an E-score of 0.281.
With `CGTGTCCA` the E-score was -0.181.
The E-score of `CAAACTCC` is reported as -0.0843.
`CGTCGGGC` has an E-score of -0.319.
With `AGGGTTAT` the E-score was 0.197.
`CCATGGCG` gave an E-score of -0.0548.
For `CCCCCATA`, the E-score was 0.131.
`AATTGCTC` has an E-score of -0.077.
`AGATCGCC` gave an E-score of -0.228.

Study 3 — method: RNA Bind-n-Seq; form: RNA; sample: in vitro; tested at: 365 nM; baseline: no-protein control; reading: higher = stronger binding
Target: RNA binding protein fox-1 homolog 2, RRM domain, GST-SBP tag (RBFOX2, Homo sapiens, UniProt O43251-10, residues 100-194)
Notes: natural RNA segment, single round, ends assumed
Target sequence (chain): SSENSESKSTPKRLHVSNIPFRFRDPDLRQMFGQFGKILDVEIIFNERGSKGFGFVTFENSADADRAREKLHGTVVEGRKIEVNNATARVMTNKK
Under “RBNS enrichment (R)”, `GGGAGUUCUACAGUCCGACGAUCAGCAGAGCAGUGCGUUGUUGGGAGAUGGAAAGUCUAUGCGUGGGUACCCUGUCUUCUUGCCUGUGGCCCCCCUCCUUUCUGAAAGUUAGUUCUCUCCGCAUUCUUUAGGAUGGAAUUCUCGGGUGCCAA` is recorded as 1.51.
`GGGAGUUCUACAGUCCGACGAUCUUGUUUACACACGAACUGCCACAUCCCCAAGCUCCGUUCUUGCCCCUCGUGUCCUAGGCCCAACCCAGCCUCCCAGACCUCACUUUCCCCAUCAGCAAUACCUGGUGUUCUGGAAUUCUCGGGUGCCAA`: “RBNS enrichment (R)” 0.609.
`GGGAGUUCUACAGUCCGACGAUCCCUGUCUGGGAAAAGGUCACUGGACCUGGAAGGGUCCCCAGGGUCCCCUGACUCCCGUCUCCAUCUGUCACGUGGUUCACCAUCAUCAGGCACCAGGCGCAAACUGCUUCUGGAAUUCUCGGGUGCCAA`: “RBNS enrichment (R)” 0.333.
Under “RBNS enrichment (R)”, `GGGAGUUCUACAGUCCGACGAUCCUGCCAUUUUCUACUUAAUUUCAAAGCCCAGUUUUAAGUAACUGGACUACACUGUUGACCUACCCAUGUGACAGUUGUUUUGUUAGAUGGAGAUGUUGCGUUACUAUGGAUGGAAUUCUCGGGUGCCAA` is recorded as 0.303.
For `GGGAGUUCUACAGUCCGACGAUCAUGGCUUCCUAAGGAAUCUCUGCUUGCUCUGUAUUCUUUAUGUGGAAUAAUAUCAAGAAAUUUUUCUUGUGAGGAAAUUCAUUUGGGGUGUGUACACUAAUGCUGUACUAUGGAAUUCUCGGGUGCCAA`, “RBNS enrichment (R)” read 0.559.
`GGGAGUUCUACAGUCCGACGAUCUCCUCUUUCAUAUAAAUAAGAAGUGGAAAUUGCCUUUUUAUUGUGUAAUGUAGAAAACCCUCAAGUGUUUUUUCCGAGCUUGGGAAAGAUUUUGUGUAGGAAAUGUGCAUUGGAAUUCUCGGGUGCCAA` — result for “RBNS enrichment (R)”: 0.938.
`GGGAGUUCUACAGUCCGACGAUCAAGGGAAGGUUUGUUUUUUUUUCUCCCCAUUUUCCCCCAUUCUGUCUUUCUUUUGGUGACUUACACCACAUGUAAUGACGCUAUGACUAAUUCUGCUCCCAAGCCCUUGUUGGAAUUCUCGGGUGCCAA` — result for “RBNS enrichment (R)”: 0.361.
`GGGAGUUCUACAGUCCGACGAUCUCCUCUGAAGCAACUGAAGGCCGAGCCUUUAGAGCAACCAUUGUCAACCUUUGUGGGUCGCCUAAGAGCAUCGCAAACCAGAUAUUUACAUUAUGAUUCAUAACAGUGACUGGAAUUCUCGGGUGCCAA` — result for “RBNS enrichment (R)”: 0.336.

Study 4 — target: CCNA2, cyclin fold, Cln2 fusion (human); method: yeast growth competition, sequencing; sample: yeast; notes: strong parent motif; baseline: not given; reading: higher = stronger binding
Starting sequence: SAMHD1 docking peptide (human); ASKSRVQLFKDDP
Under “normalised enrichment score”, `K10V` is recorded as 2.25.
For `S2W`, “normalised enrichment score” read 2.26.
`R5L`: “normalised enrichment score” 2.49.
For `R5F`, “normalised enrichment score” read 0.332.
Under “normalised enrichment score”, `D11I` is recorded as 1.45.
Under “normalised enrichment score”, `V6D` is recorded as -0.167.
`V6Q` — result for “normalised enrichment score”: 1.62.
Under “normalised enrichment score”, `S4D` is recorded as -0.152.
`L8S` — result for “normalised enrichment score”: -0.252.
`R5W`: “normalised enrichment score” 1.32.
Under “normalised enrichment score”, `S4L` is recorded as 1.54.
`V6Y` — result for “normalised enrichment score”: 0.37.
Under “normalised enrichment score”, `V6K` is recorded as 5.65.
Under “normalised enrichment score”, `K3R` is recorded as 3.48.

Excerpt of the above (study 2):
With `AGGAAGTA` the E-score was 0.0192.
`AGGGCGGC` has an E-score of -0.333.
`CCAAAGTC` has an E-score of -0.0546.
The E-score of `GGTTAGCA` is reported as -0.0838.
For `ATCATCGA`, the E-score was 0.0868.
`ACTCCCAC` has an E-score of -0.152.
With `AGACGGAG` the E-score was -0.173.
With `TGCGACCA` the E-score was -0.104.
The E-score of `ATGCGACG` is reported as -0.0648.
